Measurements pooled from the literature.
Protocols differ between the studies behind these lines. Several values in a cell are separate wells, animals, samples, runs or records.
Cell line: HepG2

`CC(C)=CCC[C@](C)(O)[C@H]1CC[C@]2(C)[C@@H]1[C@H](O)C[C@@H]1[C@@]3(C)CC[C@H](O)C(C)(C)[C@@H]3[C@@H](O[C@@H]3O[C@H](CO)[C@@H](O)[C@H](O)[C@H]3O)C[C@]12C` has an optical density of 0.587 a.u. and 0.529 a.u. and 0.481 a.u. and 0.527 a.u. and 0.522 a.u. and 0.602 a.u. (cell viability, CCK-8; 40 µM; higher = more viable cells).
The growth percent of `COc1cccc2c1C(=O)c1c(O)c3c(c(O)c1C2=O)C[C@@](O)(C(=O)CO)C[C@@H]3O[C@H]1C[C@H](N)[C@H](O)[C@H](C)O1` is reported as -39.1% (SRB; 10 µg/mL, 48 h; negative values mean cell killing).
Under IC50, `COc1ccc(-c2cc(C(F)(F)F)c3c(N)c(C(=O)N4CCCCC4)sc3n2)cc1` is recorded as “not toxic” (cell growth; concentration not given, 72 h).
For `NC(=O)c1nc(F)c[nH]c1=O`, the IC50 was > 400 µM (item: succinate dehydrogenase subunit A; 120 h).
`CC1=C(O)C(=O)C=C2C1=CC=C1[C@@]2(C)CC[C@@]2(C)[C@@H]3C[C@](C)(C(=O)O)CC[C@]3(C)CC[C@]12C` has an optical density of 0.493 a.u. and 0.537 a.u. and 0.45 a.u. and 0.488 a.u. and 0.506 a.u. and 0.421 a.u. (cell viability, CCK-8; 3 µM; higher = more viable cells).
`COc1ccc(-n2nc(C(C)=O)s/c2=N\N=C(/C)c2ccc(NC(C)=O)cc2)cc1` gave a toxicity of 93.8% (5 µM).
The IC50 of `NC(=O)c1ncn([C@@H]2O[C@H](CO)[C@@H](O)[C@H]2O)n1` is reported as > 400 µM (cell growth; 120 h).
`NCCOCC(=O)N1CCCC(C(=O)NCc2nc(-c3ccc(-c4ccc(F)cc4)cc3)cs2)C1` (stereo not shown) has an EC50 of ~20 µM (cytotoxicity).
With `O=C(N[C@H](CO)[C@H](O)c1ccc([N+](=O)[O-])cc1)C(Cl)Cl` the IC50 was > 100 µM (item: succinate dehydrogenase subunit A; 120 h).
With `CC1=CC(=O)c2c(O)cccc2C1=O` the selectivity index was 0.87 (MTT; reference: IC50 MRC-5 over IC50 HepG2).
